Assay results collected from several papers.
Every numbered part comes from another study and shows a few of its results, in no order.
Chain of UniProt P31751 (whole entry, looked up): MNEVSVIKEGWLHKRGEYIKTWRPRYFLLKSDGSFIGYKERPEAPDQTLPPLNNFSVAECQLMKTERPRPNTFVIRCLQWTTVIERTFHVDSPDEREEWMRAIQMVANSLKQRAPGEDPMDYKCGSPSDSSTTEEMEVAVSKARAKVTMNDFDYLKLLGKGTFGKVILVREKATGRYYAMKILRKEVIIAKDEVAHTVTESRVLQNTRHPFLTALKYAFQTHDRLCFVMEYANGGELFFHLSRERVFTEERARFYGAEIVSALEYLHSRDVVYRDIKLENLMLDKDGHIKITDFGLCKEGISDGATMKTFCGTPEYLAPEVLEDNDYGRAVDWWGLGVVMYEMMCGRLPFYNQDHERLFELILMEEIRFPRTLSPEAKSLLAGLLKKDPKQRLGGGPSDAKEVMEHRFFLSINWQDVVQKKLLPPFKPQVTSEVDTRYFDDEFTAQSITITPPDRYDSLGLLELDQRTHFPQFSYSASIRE
Chain of UniProt P28482 (whole entry, looked up): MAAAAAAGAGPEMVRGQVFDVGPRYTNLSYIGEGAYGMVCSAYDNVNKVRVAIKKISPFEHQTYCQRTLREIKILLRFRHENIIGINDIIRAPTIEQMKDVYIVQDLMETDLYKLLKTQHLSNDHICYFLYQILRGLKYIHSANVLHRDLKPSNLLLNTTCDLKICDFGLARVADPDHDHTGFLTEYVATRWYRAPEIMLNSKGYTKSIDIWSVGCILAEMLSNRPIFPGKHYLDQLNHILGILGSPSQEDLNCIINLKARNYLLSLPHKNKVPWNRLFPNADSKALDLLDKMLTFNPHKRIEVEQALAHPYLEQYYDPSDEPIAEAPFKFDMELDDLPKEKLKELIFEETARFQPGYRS
Chain of UniProt P06493 (whole entry, looked up): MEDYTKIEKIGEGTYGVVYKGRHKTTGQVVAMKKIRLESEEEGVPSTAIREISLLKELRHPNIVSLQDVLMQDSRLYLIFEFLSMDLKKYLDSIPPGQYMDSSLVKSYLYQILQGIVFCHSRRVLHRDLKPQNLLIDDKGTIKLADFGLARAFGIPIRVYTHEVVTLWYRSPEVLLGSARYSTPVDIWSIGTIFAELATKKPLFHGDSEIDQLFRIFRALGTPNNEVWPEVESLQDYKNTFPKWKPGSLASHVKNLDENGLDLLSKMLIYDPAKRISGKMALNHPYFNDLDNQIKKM
Chain of UniProt Q16539 (whole entry, looked up): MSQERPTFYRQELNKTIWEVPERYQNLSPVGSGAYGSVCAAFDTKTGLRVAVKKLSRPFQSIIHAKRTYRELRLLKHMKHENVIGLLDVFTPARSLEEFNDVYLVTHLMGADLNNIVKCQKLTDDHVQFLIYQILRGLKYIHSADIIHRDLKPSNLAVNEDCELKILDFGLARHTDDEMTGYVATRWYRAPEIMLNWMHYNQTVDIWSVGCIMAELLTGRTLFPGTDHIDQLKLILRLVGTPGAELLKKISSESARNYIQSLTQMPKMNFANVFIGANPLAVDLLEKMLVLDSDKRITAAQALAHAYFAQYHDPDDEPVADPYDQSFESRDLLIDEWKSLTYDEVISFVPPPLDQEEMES

Series 1
Target: Calcium/calmodulin-dependent protein kinase type II subunit alpha (CAMK2A, Homo sapiens, UniProt Q9UQM7)
Chain of UniProt Q9UQM7 (whole entry, looked up): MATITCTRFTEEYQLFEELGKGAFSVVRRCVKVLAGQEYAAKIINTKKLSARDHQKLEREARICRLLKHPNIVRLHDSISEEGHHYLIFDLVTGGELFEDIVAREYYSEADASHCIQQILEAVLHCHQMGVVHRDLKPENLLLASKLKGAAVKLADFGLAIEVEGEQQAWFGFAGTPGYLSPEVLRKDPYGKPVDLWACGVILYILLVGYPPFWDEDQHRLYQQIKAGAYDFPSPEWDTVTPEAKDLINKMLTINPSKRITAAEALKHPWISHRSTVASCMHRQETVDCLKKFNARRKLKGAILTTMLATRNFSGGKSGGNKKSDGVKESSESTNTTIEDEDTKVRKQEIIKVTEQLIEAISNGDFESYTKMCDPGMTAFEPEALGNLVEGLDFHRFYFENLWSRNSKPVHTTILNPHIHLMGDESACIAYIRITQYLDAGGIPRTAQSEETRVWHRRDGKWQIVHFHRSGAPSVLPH
Effect on: enzyme activity
Action: inhibitor
Concentration: 10 µM
SMILES	inhibition
CNC[C@H](O)c1ccc(O)cc1	-4%
O=C(CCCN1CCC2(CC1)C(=O)NCN2c1ccccc1)c1ccc(F)cc1	-1%
COC1=CC(=O)O[C@@H](CCc2ccc3c(c2)OCO3)C1	-26%

Series 2
Target: Eukaryotic initiation factor 4A-I (EIF4A1, Homo sapiens, UniProt P60842)
Chain of UniProt P60842 (whole entry, looked up): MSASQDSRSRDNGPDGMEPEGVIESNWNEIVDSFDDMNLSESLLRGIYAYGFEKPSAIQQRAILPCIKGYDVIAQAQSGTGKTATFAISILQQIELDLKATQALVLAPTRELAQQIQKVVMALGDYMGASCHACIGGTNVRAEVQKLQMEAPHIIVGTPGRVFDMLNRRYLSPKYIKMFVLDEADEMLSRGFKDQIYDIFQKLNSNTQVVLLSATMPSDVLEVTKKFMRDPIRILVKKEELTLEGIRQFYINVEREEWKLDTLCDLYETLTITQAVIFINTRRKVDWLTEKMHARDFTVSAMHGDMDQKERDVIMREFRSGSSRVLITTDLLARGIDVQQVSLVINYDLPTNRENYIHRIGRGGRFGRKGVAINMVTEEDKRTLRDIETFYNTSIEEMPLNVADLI
Effect on: RNA clamping
Method: fluorescence polarization
Concentration: concentration not given
Added: FAM-labelled poly r(AG)8 RNA
Direction: higher = more clamping
Compound	fluorescence polarization change
COc1ccc([C@@]23Oc4cc(OC)cc(OC)c4[C@@]24NC(C)=N[C@@]4(O)[C@H](C(=O)N(C)OC)[C@H]3c2ccccc2)cc1	114 mP
COc1ccc([C@]23Oc4cc(OC)cc(OC)c4[C@@]2(O)[C@@H](O)C[C@@H]3c2ccccc2)cc1	0.8 mP
COc1ccc([C@@]23Oc4cc(OC)cc(OC)c4[C@]2(O)c2nc(-c4ccc(Cl)cc4)[nH]c(=O)c2[C@H]3c2ccccc2)cc1	4 mP
COC(=O)[C@H]1[C@@H](O)[C@@]2(O)c3c(OC)cc(OC)cc3O[C@@]2(c2ccc(Br)cc2)[C@@H]1c1ccccc1	47 mP
CCOC(=O)COc1nc(-c2ccccc2)nc2c1[C@@H](c1ccccc1)[C@]1(c3ccc(OC)cc3)Oc3cc(OC)cc(OC)c3[C@]21O	11.9 mP
COC(=O)[C@@H]1[C@@H](c2ccccc2)[C@]2(c3ccc(OC)cc3)Oc3cc(OC)cc(OC)c3[C@@]23OC(c2ccc(Cl)nc2)=N[C@@]13O	6.1 mP
COc1ccc([C@@]23Oc4cc(OC)cc(OC)c4[C@@]24NC(C)=NC4=C(C=O)[C@H]3c2ccccc2)cc1	47.4 mP
[2H]C([2H])([2H])C1=N[C@@]2(O)[C@H](C(=O)OC)[C@@H](c3ccccc3)[C@]3(c4ccc(OC)cc4)Oc4cc(OC)cc(OC)c4[C@]23N1	68 mP

Series 3
Structure (SMILES): CCn1cnc2c(Nc3cccc(Cl)c3)nc(N[C@H]3CCCC[C@H]3N)nc21
Effect on: enzyme activity
Action: inhibitor
Concentration: 0.5 µM
Relative to: control
target	remaining activity [%]
Mitogen-activated protein kinase 1 (MAPK1, Homo sapiens, UniProt P28482)	91.7
Hepatocyte growth factor receptor (MET, Homo sapiens, UniProt P08581)	102
Ribosomal protein S6 kinase alpha-4 (RPS6KA4, Homo sapiens, UniProt O75676)	88.2
Serine/threonine-protein kinase PAK 3 (PAK3, Homo sapiens, UniProt O75914)	91.9
Tyrosine-protein kinase TXK (TXK, Homo sapiens, UniProt P42681)	69.1
Mitogen-activated protein kinase 14 (MAPK14, Homo sapiens, UniProt Q16539)	100
G protein-coupled receptor kinase 4 (GRK4, Homo sapiens, UniProt P32298)	96.2
MAP/microtubule affinity-regulating kinase 4 (MARK4, Homo sapiens, UniProt Q96L34)	95.5
Cyclin-dependent kinase 1, with cyclin A (CDK1, Homo sapiens, UniProt P06493)	60.7
Vascular endothelial growth factor receptor 2 (KDR, Homo sapiens, UniProt P35968)	96.5
Discoidin domain-containing receptor 2 (DDR2, Homo sapiens, UniProt Q16832)	97.2
RAC-beta serine/threonine-protein kinase (AKT2, Homo sapiens, UniProt P31751)	108
Serine/threonine-protein kinase Nek3 (NEK3, Homo sapiens, UniProt P51956)	100

Series 4
Target: DNA polymerase theta, ATPase domain (POLQ, Homo sapiens, UniProt O75417)
Chain of UniProt O75417 (whole entry, unmodified, looked up): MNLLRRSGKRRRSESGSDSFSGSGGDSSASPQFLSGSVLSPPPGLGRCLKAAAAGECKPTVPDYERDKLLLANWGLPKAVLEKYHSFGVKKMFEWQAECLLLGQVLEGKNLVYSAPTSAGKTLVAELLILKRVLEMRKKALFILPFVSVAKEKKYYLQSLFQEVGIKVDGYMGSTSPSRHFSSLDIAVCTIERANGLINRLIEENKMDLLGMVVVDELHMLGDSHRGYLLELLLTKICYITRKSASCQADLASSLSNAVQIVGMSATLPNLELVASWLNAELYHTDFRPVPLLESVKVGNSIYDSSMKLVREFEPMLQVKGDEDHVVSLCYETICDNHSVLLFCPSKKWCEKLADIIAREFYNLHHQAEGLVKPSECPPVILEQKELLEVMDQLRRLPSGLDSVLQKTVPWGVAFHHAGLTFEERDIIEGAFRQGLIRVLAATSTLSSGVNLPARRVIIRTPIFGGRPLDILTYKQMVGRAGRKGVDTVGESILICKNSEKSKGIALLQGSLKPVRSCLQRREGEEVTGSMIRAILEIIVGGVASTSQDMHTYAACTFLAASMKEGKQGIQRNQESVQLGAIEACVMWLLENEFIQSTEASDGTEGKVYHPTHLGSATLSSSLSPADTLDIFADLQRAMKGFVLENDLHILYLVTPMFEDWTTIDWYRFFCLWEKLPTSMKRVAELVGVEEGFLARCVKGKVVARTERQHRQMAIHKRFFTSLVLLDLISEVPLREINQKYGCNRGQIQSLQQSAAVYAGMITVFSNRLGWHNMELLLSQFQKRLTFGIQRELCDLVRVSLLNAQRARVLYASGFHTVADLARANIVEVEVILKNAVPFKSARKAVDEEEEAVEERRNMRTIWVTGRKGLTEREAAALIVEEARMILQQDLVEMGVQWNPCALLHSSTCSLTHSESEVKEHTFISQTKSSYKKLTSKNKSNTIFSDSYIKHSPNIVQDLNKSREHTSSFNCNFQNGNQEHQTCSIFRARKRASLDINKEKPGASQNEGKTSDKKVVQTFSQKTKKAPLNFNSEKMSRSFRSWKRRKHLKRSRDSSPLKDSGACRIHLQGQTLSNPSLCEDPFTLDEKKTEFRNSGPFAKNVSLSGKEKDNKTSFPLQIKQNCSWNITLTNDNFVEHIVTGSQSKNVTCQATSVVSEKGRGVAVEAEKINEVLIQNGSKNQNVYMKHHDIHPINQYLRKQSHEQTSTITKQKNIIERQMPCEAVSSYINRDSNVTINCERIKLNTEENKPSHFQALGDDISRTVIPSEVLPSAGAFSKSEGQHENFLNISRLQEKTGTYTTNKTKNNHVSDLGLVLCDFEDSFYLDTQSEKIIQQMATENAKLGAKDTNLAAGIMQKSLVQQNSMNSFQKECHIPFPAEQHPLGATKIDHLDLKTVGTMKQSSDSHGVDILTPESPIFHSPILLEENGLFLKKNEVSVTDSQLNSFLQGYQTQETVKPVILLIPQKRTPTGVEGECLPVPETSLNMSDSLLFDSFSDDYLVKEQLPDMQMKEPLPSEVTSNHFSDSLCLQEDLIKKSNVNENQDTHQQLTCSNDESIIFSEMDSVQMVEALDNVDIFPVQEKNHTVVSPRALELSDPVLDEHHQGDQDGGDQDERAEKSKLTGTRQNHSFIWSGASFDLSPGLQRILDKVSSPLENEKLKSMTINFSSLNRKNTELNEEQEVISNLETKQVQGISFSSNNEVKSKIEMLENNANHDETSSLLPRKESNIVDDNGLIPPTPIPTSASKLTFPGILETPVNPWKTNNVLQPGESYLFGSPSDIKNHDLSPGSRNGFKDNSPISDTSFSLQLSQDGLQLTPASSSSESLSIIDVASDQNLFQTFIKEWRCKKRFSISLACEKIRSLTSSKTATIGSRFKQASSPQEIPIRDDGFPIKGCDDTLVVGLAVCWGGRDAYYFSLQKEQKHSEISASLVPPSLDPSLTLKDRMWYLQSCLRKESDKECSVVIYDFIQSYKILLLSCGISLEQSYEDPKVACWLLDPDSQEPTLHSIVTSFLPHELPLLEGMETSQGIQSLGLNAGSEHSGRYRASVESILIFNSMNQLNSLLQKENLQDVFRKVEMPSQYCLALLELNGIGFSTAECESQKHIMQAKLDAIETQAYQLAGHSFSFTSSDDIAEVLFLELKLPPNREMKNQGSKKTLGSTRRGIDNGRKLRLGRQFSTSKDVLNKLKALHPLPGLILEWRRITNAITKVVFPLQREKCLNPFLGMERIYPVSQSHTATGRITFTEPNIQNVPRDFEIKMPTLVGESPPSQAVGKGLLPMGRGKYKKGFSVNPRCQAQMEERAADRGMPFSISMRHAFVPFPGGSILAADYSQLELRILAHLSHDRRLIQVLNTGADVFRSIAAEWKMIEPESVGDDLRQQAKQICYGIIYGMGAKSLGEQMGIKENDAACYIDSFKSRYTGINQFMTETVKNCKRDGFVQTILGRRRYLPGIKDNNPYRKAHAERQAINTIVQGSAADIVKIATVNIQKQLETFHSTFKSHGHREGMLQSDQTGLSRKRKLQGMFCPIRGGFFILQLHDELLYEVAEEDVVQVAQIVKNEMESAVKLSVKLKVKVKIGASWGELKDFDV
Effect on: enzyme activity
Action: inhibitor
Concentration: 77 µM
Relative to: untreated
Compound	remaining activity [%]
C=CCc1ccccc1OCC(O)CNC1(C)CCC(C(C)(C)NC(=O)CBr)CC1 (centres unmarked)	100
CC(C)(C)NCC(O)c1ccccc1Cl (centres unmarked)	99.1
CC(=O)O[C@H]1CC[C@@]2(C)C(=CC[C@@H]3[C@@H]2CC[C@]2(C)C(=O)CC[C@@H]32)C1	103
OCc1cnc[nH]1	102
Cc1ncsc1CCCl	89.8
CCCC[N+]1(C)[C@@H]2C[C@@H](OC(=O)[C@H](CO)c3ccccc3)C[C@H]1[C@@H]1O[C@@H]12 (some centres unmarked)	101
c1ccc2c(c1)[I+]c1ccccc1-2	107
O=C(O)CCCc1ccc(N(CCCl)CCCl)cc1	101

Repeated from above (series 2):
Compound	fluorescence polarization change
COc1ccc([C@]23Oc4cc(OC)cc(OC)c4[C@@]2(O)[C@@H](O)C[C@@H]3c2ccccc2)cc1	0.8 mP
COc1ccc([C@@]23Oc4cc(OC)cc(OC)c4[C@]2(O)c2nc(-c4ccc(Cl)cc4)[nH]c(=O)c2[C@H]3c2ccccc2)cc1	4 mP
